Assay results gathered from unrelated publications.
Numbered parts are unrelated; each lists some results of a single study.

Block 1 — technique: protein binding microarray; molecule type: double-stranded DNA, one strand shown; matrix: in vitro; concentration: not given; relative to: not given; reading: higher = stronger binding
Target: Histone acetyltransferase KAT6A, winged helix 2, GST fusion (KAT6A, Homo sapiens, UniProt Q92794, residues 85-181)
Notes: 8-mer, flanks averaged, mean of 2 arrays, mostly near background
Construct (chain): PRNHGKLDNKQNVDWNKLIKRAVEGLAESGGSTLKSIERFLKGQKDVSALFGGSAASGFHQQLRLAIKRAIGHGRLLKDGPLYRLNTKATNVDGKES
Strand	E-score
TCCAGCGA	0.00407
GTTGGCCA	-0.152
CGAATGAC	0.141
ATACGTCA	-0.189
ACGGTTCT	-0.0808

Block 2 — technique: universal PBM; molecule type: double-stranded DNA, one strand shown; matrix: in vitro; concentration: not given; reading: higher = stronger binding
Target: Sal-like protein 4, full length isoform B (SALL4, Homo sapiens, UniProt Q9UJQ4-2, residues 1-616)
Notes: 8-mer, flanks averaged, mean of replicates
Strand	E-score
GCACACAC	-0.0015
ATCAGAGA	0.116
CATTGGAA	0.179
ACGGATCT	-0.154
ATGCGCTC	-0.0972
CGGAACTA	-0.0664
GGGTGTAA	-0.0055
GGGCCTGA	-0.253

Block 3 — technique: aptamer microarray, sandwich; molecule type: DNA with 2'F-ANA; matrix: in vitro; concentration: 200 nM; with: Cy3 exosite-II aptamer, 400 nM; reading: higher = stronger binding
Target: Prothrombin, mature alpha-thrombin (F2, Homo sapiens, UniProt P00734)
Notes: whole 15-mer aptamer, many near background
Strand	mean fluorescence intensity
GGTTGGTGTGGTTGG (2'F-ANA at 2 4 9 10 14)	62.7 a.u.
GGTTGGTGTGGTTGG (2'F-ANA at 1 4 5 6 7 8 12 13)	82.3 a.u.
GGTTGGTGTGGTTGG (2'F-ANA at 2 7 8 9 14 15)	157 a.u.
GGTTGGTGTGGTTGG (2'F-ANA at 4 5 8 9 11 13 14 15)	50.4 a.u.

Single results of other studies
Substance	target	test	system	conditions	how to read	measurement	value
PhoQ, residues 284 288 289 292 302 303 TTCLQL	PhoP, residues 12 14 15 18 19 NQAHL (Escherichia coli, UniProt P23836)	Sort-seq, refers to: YFP reporter	E. coli	PhoQ-PhoP variant library, with: 10 µM Mg2+	relative to: high Mg2+ state, higher = stronger signaling	fold induction	0.723

For quick reference, copied from above (block 1):
Strand	E-score
GTTGGCCA	-0.152
TCCAGCGA	0.00407
ATACGTCA	-0.189
